Measurements of several laboratories.
± gives the spread as reported.
Chain of UniProt Q9NWZ3 (whole entry, looked up): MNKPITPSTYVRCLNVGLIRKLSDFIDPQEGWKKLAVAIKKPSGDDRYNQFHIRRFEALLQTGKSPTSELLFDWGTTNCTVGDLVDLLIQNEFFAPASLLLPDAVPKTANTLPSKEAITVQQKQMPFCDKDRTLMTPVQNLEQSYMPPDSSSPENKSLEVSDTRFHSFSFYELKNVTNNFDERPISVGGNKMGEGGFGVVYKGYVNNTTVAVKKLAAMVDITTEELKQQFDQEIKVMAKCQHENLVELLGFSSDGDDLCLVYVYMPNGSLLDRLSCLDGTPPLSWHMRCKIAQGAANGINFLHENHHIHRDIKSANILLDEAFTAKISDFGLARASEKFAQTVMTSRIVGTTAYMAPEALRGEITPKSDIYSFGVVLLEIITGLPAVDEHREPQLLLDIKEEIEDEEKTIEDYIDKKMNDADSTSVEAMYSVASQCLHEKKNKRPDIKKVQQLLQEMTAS

Structure (SMILES)	tested on	assay	system	conditions	scale	endpoint	value
CC[C@H](C)[C@H](NC(=O)[C@H](CCCNC(=N)N)NC(=O)[C@H](CCCCN)NC(=O)[C@H](Cc1ccc(O)cc1)NC(=O)[C@H](CC(=O)O)NC(=O)[C@H](C)NC(=O)CNC(=O)CCOCCOCCOCCNC(=O)CN1CCN(CC(=O)O)CCN(CC(=O)O)CCN(CC(=O)O)CC1)C(=O)N[C@H](C(=O)N[C@@H](CC(C)C)C(=O)N[C@@H](CCCCN)C(=O)N[C@H](C(=O)N[C@@H](CC(N)=O)C(N)=O)C(C)C)[C@@H](C)O [copper-64 labelled]	–	ex vivo gamma counting	C57BL/6J male mice, B16-F10 tumour, brain	intravenous, 1.85 MBq, 20 min	–	tissue uptake	0.126 ± 0.053 %ID/g
CCCC[C@H]1C(=O)N(C)[C@@H](CCCC)C(=O)N[C@@H](CCCNC(=O)CN2CCN(CC(=O)O)CCN(CC(=O)O)CCN(CC(=O)O)CC2)C(=O)N[C@H](C(=O)NCC(N)=O)CSCC(=O)N[C@@H](Cc2ccc(O)cc2)C(=O)N(C)[C@@H](C)C(=O)N[C@@H](CC(N)=O)C(=O)N2CCC[C@H]2C(=O)N[C@@H](Cc2c[nH]cn2)C(=O)N[C@@H](CC(C)C)C(=O)N(C)CC(=O)N[C@@H](Cc2c[nH]c3ccccc23)C(=O)N[C@@H](CO)C(=O)N[C@@H](Cc2c[nH]c3ccccc23)C(=O)N1C [gallium-68 labelled]	–	–	NOD/SCID mice with CHO-hPD-L1 xenograft, lung	120 min post injection	–	tissue uptake	5.93 ± 2.2 %ID/g
O=C1NC2(CC2)COc2ncc(F)cc2[C@H]2COCCN2c2ccn3ncc1c3n2	–	–	Sprague-Dawley rat, male, serum	oral, 2.5 mg/kg/day, end of treatment, 4-week subacute toxicity	–	serum triglycerides	0.34 ± 0.08 mmol/L
C[C@H](O)[C@@H](NC(=O)[C@H]1CCCN1C(=O)[C@@H](CCCCN)NC(=O)[C@@H](CO)NC(=O)[C@@H](Cc1ccc(O)cc1)NC(=O)[C@@H](CC(N)=O)NC(=O)CCOCCOCCOCCNC(=O)CN1CCN(CC(=O)O)CCN(CC(=O)O)CCN(CC(=O)O)CC1)C(=O)N[C@H](CC(=O)O)C(=O)N[C@H](CCCNC(=N)N)C(=O)N[C@H](CCC(N)=O)C(=O)N[C@H](Cc1ccc(O)cc1)C(=O)N[C@H](Cc1c[nH]cn1)C(=O)N[C@H](Cc1ccccc1)C(N)=O [gallium-68 labelled]	–	–	BALB/c nude mice U-87 MG tumour, stomach	intravenous, 1.85 MBq, 2 h, radiolabelled	–	tissue uptake	0.08 ± 0.03 %ID/g
CN1Cc2cc(Cl)ccc2-n2c(nnc2C2CCN(c3cccc([18F])n3)CC2)C1	–	–	C57BL/6 mouse male, spleen	intravenous, 3.7 MBq, 1 min	–	tissue uptake	2.96 ± 1.56 %ID/g
CC(C)(C)C(=O)OCOP(=O)(OCOC(=O)C(C)(C)C)C1CCCN(O)C1=O (stereo not drawn)	NCI-H460	–	–	–	–	log LC50	> -4 log M
COc1ccccc1-c1n[nH]c2nc(NC3CCN(C(=O)Cc4ccc(F)cc4F)CC3)ncc12	–	bead binding, competition bead pull-down, measured: LINJ.25.2090	Leishmania donovani extract	10 µM	baseline: vehicle	relative abundance	1.03
CSCC[C@H](NC(=O)CNC(=O)[C@H](CCCCN)NC(=O)[C@H](CC(C)C)NC(=O)[C@@H]1CCCN1C(=O)[C@H](CO)NC(=O)[C@H](Cc1c[nH]cn1)NC(=O)[C@H](Cc1c[nH]c2ccccc12)NC(=O)[C@H](CCCNC(=N)N)NC(=O)[C@H](CC(C)C)NC(=O)[C@H](CCCNC(=N)N)NC(=O)[C@H](Cc1c[nH]c2ccccc12)NC(=O)[C@H](CS)NC(=O)CCCCCNC(=O)CN1CCN(CC(=O)O)CCN(CC(=O)O)CCN(CC(=O)O)CC1)C(=O)O [copper-64 labelled]	–	ex vivo biodistribution	male C57BL/6J mice, pancreas	intravenous, 1.85 MBq, 2 h, B16-F10 tumour-bearing	–	tissue uptake	1.47 %ID/g
CC[C@H](C)[C@H](NC(=O)[C@H](CCCCN)NC(=O)CNC(=O)[C@H](CC(C)C)NC(=O)[C@H](Cc1ccccc1)NC(=O)[C@H](CCCCN)NC(=O)[C@H](CO)NC(=O)[C@H](Cc1ccccc1)NC(=O)[C@H](Cc1c[nH]c2ccccc12)NC(=O)[C@H](CCC(N)=O)NC(=O)[C@@H](NC(=O)[C@H](Cc1ccccc1)NC(=O)CCCCCNC(=O)CN1CCN(CC(=O)O)CCN(CC(=O)O)CCN(CC(=O)O)CC1)C(C)C)C(=O)N[C@@H](CCC(=O)O)C(=O)N1CCC[C@H]1C(=O)N[C@@H](CC(=O)O)C(=O)N[C@H](C(=O)N[C@@H](CO)C(=O)N[C@@H](CCC(N)=O)C(=O)N[C@H](C(=O)N[C@@H](CCC(N)=O)C(=O)N[C@@H](CC(=O)O)C(=O)N1CCC[C@H]1C(=O)N[C@@H](CC(N)=O)C(=O)N[C@@H](CC(=O)O)C(=O)N[C@@H](CCC(N)=O)C(=O)N[C@@H](Cc1ccc(O)cc1)C(=O)N[C@@H](CCC(=O)O)C(=O)N1CCC[C@H]1C(=O)N[C@@H](Cc1ccccc1)C(=O)O)C(C)C)C(C)C [copper-64 labelled]	–	–	C57BL/6 male mouse, tumour-naive, large intestine	2 h	–	tissue uptake	10.7 ± 3.1 %ID/g
CS(C)(=O)=Nc1ccc(-c2ccc(-c3nc4cc(O[C@@H]5CO[C@H]6[C@@H]5OC[C@H]6O)[nH]c4cc3F)cc2)cc1	IRAK4 (Homo sapiens, UniProt Q9NWZ3)	enzyme activity, inhibitor	–	10 µM	–	inhibition	-14%
CC(C)C[C@@H](NC(=O)[C@@H](CCCNC(=N)N)NC(=O)[C@@H](Cc1c[nH]cn1)NC(=O)[C@@H](Cc1c[nH]c2ccccc12)NC(=O)[C@@H](Cc1c[nH]cn1)NC(=O)[C@@H](Cc1ccccc1)NC(=O)[C@H](NC(=O)[C@@H](Cc1ccc(O)cc1)NC(=O)CNC(=O)CNC(=O)CCOCCOCCOCCNC(=O)CN1CCN(CC(=O)O)CCN(CC(=O)O)CC1)[C@H](C)O)C(=O)N[C@H](CC(N)=O)C(=O)N1CCC[C@@H]1C(=O)O [gallium-68 labelled]	–	–	C57BL/6 mice, male, muscle	intravenous, 1.85 MBq, 60 min, with: blocking antibody	–	tissue uptake	0.57 ± 0.11 %ID/g
CC[C@H](C)[C@H](NC(=O)[C@@H](Cc1c[nH]c2ccccc12)NC(=O)[C@@H]1CCCN1C(=O)[C@H](CCCCN)NC(=O)[C@H](CCCCN)NC(=O)CCNC(=O)CCNC(=O)CN1CCN(CC(=O)O)CCN(CC(=O)O)CCN(CC(=O)O)CC1)C(=O)N[C@@H](C[Si](C)(C)C)C(=O)O [gallium-68 labelled]	–	–	nude mouse HT-29 xenograft, muscle	90 min	–	tissue uptake	0.1 ± 0.07 %ID/g

A few entries again:
Structure (SMILES)	tested on	assay	system	conditions	scale	endpoint	value
CSCC[C@H](NC(=O)CNC(=O)[C@H](CCCCN)NC(=O)[C@H](CC(C)C)NC(=O)[C@@H]1CCCN1C(=O)[C@H](CO)NC(=O)[C@H](Cc1c[nH]cn1)NC(=O)[C@H](Cc1c[nH]c2ccccc12)NC(=O)[C@H](CCCNC(=N)N)NC(=O)[C@H](CC(C)C)NC(=O)[C@H](CCCNC(=N)N)NC(=O)[C@H](Cc1c[nH]c2ccccc12)NC(=O)[C@H](CS)NC(=O)CCCCCNC(=O)CN1CCN(CC(=O)O)CCN(CC(=O)O)CCN(CC(=O)O)CC1)C(=O)O [copper-64 labelled]	–	ex vivo biodistribution	male C57BL/6J mice, pancreas	intravenous, 1.85 MBq, 2 h, B16-F10 tumour-bearing	–	tissue uptake	1.47 %ID/g
CS(C)(=O)=Nc1ccc(-c2ccc(-c3nc4cc(O[C@@H]5CO[C@H]6[C@@H]5OC[C@H]6O)[nH]c4cc3F)cc2)cc1	IRAK4 (Homo sapiens, UniProt Q9NWZ3)	enzyme activity, inhibitor	–	10 µM	–	inhibition	-14%
